Assay results collected from several papers.
Each numbered part is a random draw from the data of one study; scales do not carry over between parts. Several values in a cell are separate wells, animals, samples, runs or records. ± marks the error that the study gave.
Sequence of UniProt Q08881 (whole entry, looked up): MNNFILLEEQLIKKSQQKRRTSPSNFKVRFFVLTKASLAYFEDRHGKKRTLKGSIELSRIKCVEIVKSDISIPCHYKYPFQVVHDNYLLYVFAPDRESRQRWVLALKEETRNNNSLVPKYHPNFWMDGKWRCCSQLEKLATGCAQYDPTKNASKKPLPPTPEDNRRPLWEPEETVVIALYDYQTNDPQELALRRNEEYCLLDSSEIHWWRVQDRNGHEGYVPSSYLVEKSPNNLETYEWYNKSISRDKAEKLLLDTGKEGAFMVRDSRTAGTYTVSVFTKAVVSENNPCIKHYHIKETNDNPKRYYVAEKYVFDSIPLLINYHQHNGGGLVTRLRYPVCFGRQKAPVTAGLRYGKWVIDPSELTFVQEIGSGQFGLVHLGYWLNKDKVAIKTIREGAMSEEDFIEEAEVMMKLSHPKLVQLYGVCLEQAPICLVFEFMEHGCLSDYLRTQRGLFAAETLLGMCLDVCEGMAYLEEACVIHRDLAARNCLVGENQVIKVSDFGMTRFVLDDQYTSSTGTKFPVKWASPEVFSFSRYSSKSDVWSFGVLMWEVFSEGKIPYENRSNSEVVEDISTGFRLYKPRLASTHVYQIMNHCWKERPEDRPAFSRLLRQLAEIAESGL
Sequence of UniProt P42680 (whole entry, looked up): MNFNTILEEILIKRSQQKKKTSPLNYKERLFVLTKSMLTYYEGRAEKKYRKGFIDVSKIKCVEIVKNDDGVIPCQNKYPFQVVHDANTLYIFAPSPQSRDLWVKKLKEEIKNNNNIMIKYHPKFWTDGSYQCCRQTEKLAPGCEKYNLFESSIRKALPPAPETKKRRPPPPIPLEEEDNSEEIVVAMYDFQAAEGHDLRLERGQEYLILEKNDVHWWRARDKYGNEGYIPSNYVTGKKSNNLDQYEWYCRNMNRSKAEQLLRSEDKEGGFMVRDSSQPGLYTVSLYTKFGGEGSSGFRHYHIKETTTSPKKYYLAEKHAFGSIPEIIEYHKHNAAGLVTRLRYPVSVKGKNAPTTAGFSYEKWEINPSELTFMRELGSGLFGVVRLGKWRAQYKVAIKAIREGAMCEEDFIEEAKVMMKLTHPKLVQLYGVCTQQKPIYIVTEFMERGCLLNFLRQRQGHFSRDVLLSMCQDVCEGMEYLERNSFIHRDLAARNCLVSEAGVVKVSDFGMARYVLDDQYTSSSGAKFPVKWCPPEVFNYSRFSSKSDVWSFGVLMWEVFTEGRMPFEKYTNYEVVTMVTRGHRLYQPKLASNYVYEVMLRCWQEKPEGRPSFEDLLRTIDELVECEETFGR
Sequence of UniProt P51451 (whole entry, looked up): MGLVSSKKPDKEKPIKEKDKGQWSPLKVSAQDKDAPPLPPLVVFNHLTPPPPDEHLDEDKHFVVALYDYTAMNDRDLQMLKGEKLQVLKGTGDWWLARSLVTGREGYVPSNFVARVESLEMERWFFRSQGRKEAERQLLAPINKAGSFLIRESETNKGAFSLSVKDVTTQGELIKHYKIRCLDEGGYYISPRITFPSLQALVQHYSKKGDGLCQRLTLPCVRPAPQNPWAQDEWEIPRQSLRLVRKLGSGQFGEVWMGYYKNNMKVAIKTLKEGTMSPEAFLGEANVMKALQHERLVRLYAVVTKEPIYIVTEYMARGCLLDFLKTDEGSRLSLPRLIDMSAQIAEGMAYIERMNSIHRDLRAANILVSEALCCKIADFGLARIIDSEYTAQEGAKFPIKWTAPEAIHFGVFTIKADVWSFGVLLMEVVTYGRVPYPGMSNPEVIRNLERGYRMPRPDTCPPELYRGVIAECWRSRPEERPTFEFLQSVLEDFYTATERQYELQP

Series 1 — observed: thermal unfolding; technique: differential scanning fluorimetry; concentration: 5.5 µM; reading: higher = more unfolded
SMILES: C[C@@H]1CN(c2ccc(-c3cc(C(=O)NCCOCCOCCOCCOCCNC(=O)Cn4cc(-c5[nH]cc(C(=O)N[C@@H](CC(N)=O)c6ccc(F)c(Cl)c6)c5-c5ccc(Cl)cc5F)cn4)ccc3F)cc2NC(=O)c2c[nH]c(=O)cc2C(F)(F)F)C[C@H](C)N1C
WDR5: WD repeat-containing protein 5 (WDR5, Homo sapiens, UniProt P61964)
DCAF1: DDB1- and CUL4-associated factor 1 (DCAF1, Homo sapiens, UniProt Q9Y4B6)
Sequence of UniProt Q9Y4B6 (whole entry, looked up): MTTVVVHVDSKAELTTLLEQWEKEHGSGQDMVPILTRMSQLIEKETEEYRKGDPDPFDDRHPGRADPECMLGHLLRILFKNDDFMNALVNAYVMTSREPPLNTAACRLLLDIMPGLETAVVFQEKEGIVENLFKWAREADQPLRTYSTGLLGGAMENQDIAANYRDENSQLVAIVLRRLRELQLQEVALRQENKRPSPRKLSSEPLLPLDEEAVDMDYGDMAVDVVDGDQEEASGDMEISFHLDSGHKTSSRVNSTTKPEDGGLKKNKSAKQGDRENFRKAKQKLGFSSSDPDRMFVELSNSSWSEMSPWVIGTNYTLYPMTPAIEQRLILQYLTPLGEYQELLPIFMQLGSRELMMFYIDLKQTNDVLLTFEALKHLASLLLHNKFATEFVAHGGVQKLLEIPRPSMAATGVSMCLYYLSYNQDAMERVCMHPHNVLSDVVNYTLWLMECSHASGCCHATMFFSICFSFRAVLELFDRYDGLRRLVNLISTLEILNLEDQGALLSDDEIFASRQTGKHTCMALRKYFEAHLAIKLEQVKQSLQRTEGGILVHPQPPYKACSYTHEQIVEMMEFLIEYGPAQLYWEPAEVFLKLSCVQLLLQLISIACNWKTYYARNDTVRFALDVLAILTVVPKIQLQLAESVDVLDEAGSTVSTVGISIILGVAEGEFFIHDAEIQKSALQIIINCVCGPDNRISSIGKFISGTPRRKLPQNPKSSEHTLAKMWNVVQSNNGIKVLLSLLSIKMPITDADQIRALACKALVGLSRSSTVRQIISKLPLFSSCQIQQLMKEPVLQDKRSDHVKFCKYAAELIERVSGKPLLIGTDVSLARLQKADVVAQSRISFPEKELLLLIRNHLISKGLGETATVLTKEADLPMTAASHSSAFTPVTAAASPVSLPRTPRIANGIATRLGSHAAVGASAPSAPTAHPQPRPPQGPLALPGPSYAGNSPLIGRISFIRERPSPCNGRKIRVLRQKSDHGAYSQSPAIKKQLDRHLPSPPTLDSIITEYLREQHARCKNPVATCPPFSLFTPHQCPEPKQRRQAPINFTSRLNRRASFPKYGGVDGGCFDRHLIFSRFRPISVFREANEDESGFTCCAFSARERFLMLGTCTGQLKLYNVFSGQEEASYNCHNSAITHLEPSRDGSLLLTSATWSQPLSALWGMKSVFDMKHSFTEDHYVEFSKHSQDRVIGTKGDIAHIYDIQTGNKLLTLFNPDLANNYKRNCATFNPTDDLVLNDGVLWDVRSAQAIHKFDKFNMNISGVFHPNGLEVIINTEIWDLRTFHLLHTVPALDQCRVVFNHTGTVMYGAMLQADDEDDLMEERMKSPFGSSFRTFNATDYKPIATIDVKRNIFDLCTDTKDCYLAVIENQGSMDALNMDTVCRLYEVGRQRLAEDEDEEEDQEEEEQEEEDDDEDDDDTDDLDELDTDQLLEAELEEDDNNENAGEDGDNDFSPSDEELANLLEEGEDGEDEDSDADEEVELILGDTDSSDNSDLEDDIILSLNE
| target | setting | SYPRO Orange fluorescence |
| --- | --- | --- |
| WDR5 | 34.6 °C | 14300 a.u. |
| WDR5 | 41.4 °C | 14200 a.u. |
| WDR5 | 86.41 °C | 42100 a.u. |
| DCAF1 | 79.81 °C | 44400 a.u. |
| WDR5 | 76.61 °C | 14000 a.u. |
| WDR5 | 82.41 °C | 31300 a.u. |
| WDR5 | 30.2 °C | 15000 a.u. |
| WDR5 | 89.81 °C | 43300 a.u. |
| DCAF1 | 73.21 °C | 51200 a.u. |
| WDR5 | 63.21 °C | 8680 a.u. |
| DCAF1 | 30.4 °C | 8330 a.u. |

Series 2 — observed: enzyme activity
SMILES: CN(C1COC1)C(C)(C)/C=C(\C#N)C(=O)N1CCC[C@H]1Cn1nc(-c2ccc(Oc3ccccc3)cc2F)c2c(N)ncnc21
BTK: Tyrosine-protein kinase BTK (BTK, Homo sapiens, UniProt Q06187)
Sequence of UniProt Q06187 (whole entry, looked up): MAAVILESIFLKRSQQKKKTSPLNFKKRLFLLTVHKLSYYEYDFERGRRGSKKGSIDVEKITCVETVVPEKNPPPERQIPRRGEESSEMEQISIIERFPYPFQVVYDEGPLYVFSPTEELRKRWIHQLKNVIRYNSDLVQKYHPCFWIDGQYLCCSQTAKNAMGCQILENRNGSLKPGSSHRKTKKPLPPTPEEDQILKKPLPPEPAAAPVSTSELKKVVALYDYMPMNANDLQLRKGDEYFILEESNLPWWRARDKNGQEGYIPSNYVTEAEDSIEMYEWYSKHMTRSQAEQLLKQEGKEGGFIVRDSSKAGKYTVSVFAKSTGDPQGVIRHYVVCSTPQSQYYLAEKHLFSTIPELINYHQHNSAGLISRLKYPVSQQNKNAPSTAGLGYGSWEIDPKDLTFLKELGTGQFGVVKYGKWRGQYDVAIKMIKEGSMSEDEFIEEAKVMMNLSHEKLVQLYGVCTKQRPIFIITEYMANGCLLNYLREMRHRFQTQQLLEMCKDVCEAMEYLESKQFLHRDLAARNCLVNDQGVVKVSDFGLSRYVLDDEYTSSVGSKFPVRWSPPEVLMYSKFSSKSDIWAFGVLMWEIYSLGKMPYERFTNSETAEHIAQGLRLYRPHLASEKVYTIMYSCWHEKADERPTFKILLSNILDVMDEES
| target | assay | setting | IC50 |
| --- | --- | --- | --- |
| Receptor tyrosine-protein kinase erbB-2 (ERBB2, Homo sapiens, UniProt P04626) | inhibitor |  | > 5000 nM |
| BTK |  | no preincubation | 3.3 ± 0.8 nM |
| Tyrosine-protein kinase Blk (BLK, Homo sapiens, UniProt P51451) | inhibitor |  | 68 nM |
| Tyrosine-protein kinase TXK (TXK, Homo sapiens, UniProt P42681) | inhibitor |  | 41 nM |
| Tyrosine-protein kinase ITK/TSK (ITK, Homo sapiens, UniProt Q08881) | inhibitor |  | > 5000 nM |
| BTK |  | preincubation 10 min | 2.6 ± 0.3 nM |
| BTK |  | preincubation 180 min | 1 ± 0.2 nM |
| Tyrosine-protein kinase JAK3 (JAK3, Homo sapiens, UniProt P52333) | inhibitor |  | > 5000 nM |
| Tyrosine-protein kinase Tec (TEC, Homo sapiens, UniProt P42680) | inhibitor |  | 3.4 nM |

Series 3 — technique: CellTiter-Glo
Compound: CCN1CCN(Cc2ccc(COc3c(-c4c(C)c(F)cc5[nH]ncc45)c(C4CC4)cc4c(N5C[C@@H]6C[C@H]5CN6)nc(OC5CCOCC5)nc34)cc2)C(=O)C1
| cell line | setting | scale | viability |
| --- | --- | --- | --- |
| A-375 (KRAS wild type) | 3 µM, 6 days | baseline: DMSO | 65.9% and 72.4% and 78.3% and 65.8% |
| A-375 (KRAS wild type) | 10 µM, 6 days | baseline: DMSO | 0.3% and 0.1% |
| AsPC-1 (KRAS G12D) | 1 µM |  | 13.5% and 10.9% and 11.7% and 11.1% |
| AsPC-1 (KRAS G12D) | 300 pM |  | 98.4% and 104% and 88.2% and 100% |
| AsPC-1 (KRAS G12D) | 3 µM |  | 2.39% and 2.86% and 3.16% and 1.83% and 2.26% and 2.56% and 3.14% and 3.54% |

Other studies, line by line
Target: Myeloperoxidase (MPO, Homo sapiens, UniProt P05164)
Sequence of UniProt P05164 (whole entry, looked up): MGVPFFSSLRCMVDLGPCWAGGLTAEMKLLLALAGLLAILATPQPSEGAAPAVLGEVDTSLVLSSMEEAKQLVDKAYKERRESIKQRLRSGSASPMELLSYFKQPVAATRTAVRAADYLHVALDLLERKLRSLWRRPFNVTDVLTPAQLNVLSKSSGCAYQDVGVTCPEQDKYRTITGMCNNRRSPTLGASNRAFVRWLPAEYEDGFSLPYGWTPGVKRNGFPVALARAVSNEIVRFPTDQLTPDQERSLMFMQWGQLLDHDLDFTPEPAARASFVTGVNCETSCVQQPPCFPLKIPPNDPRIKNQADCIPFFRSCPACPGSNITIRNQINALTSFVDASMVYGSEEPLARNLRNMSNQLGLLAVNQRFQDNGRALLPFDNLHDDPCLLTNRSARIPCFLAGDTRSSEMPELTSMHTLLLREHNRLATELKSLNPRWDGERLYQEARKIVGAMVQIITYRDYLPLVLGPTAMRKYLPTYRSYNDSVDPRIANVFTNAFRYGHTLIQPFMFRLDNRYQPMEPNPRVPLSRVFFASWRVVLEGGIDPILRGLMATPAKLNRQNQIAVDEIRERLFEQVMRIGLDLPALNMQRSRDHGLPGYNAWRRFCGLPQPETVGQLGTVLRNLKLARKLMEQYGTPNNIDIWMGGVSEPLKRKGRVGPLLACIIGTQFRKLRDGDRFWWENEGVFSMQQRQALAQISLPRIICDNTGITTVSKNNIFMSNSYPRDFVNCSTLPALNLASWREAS
| SMILES | assay | setting | inhibition |
| --- | --- | --- | --- |
| CC(C)(C)NC(=O)c1ccc(OC/C(=C/F)CN)cc1 | enzyme activity, inhibitor, fluorescence | 3.333 µM | -11.7% and -10.4% and -15.8% |
| NC/C(=C/F)COc1cccc(Cn2c(=S)[nH]c(=O)c3[nH]cnc32)c1 | H2O2 consumption, inhibitor, Amplex Red | 1.694e-05 µM | 4.24% |
| NC/C(=C\F)COc1ccc(C(F)(F)F)c(Cn2c(=S)[nH]c(=O)c3[nH]cnc32)c1 | enzyme activity | 0.0005 µM | 9.84% and -22.3% |

Excerpt of the above (series 2):
| target | assay | setting | IC50 |
| --- | --- | --- | --- |
| BTK |  | no preincubation | 3.3 ± 0.8 nM |
| Tyrosine-protein kinase Blk (BLK, Homo sapiens, UniProt P51451) | inhibitor |  | 68 nM |
| Tyrosine-protein kinase TXK (TXK, Homo sapiens, UniProt P42681) | inhibitor |  | 41 nM |
| Tyrosine-protein kinase ITK/TSK (ITK, Homo sapiens, UniProt Q08881) | inhibitor |  | > 5000 nM |
| BTK |  | preincubation 10 min | 2.6 ± 0.3 nM |
